Published values of several laboratories.
Numbered parts are unrelated; each lists some results of a single study.

Block 1
Organism: Saccharomyces cerevisiae
Effect on: binding
Technique: yeast competitive growth sequencing
Molecule type: peptide
Strain: cyclin D1-Cln2 strain
Sample: peptide tiling library
Reading: direction not given
The enrichment score of `RSLKLDGLLEEN` is reported as -0.478.
`QDYERRLLRQIVIQNE` gave an enrichment score of -0.925.
With `LAKRALKYTD` the enrichment score was -1.32.
With `KPITLDTTDFQESFVT` the enrichment score was 1.67.
For `ALLRRLQDVANDRGSH`, the enrichment score was 2.89.
The enrichment score of `VLLKRLQDVVSERANH` is reported as 3.49.
The enrichment score of `IQKKLRFEDTLEFVGF` is reported as -1.04.
The enrichment score of `TSSAQRRLEIPSGGAD` is reported as -0.98.
`SPREGHMMDALYAQVK` gave an enrichment score of 0.861.
For `KSKHEEEEWTDDDLVE`, the enrichment score was 2.57.
For `CFRCLLFSFSGRSGVE`, the enrichment score was -2.22.
For `LKGRRLVFDN`, the enrichment score was -0.284.
With `TSPGPVLLHPSPSTTQ` the enrichment score was 1.68.
For `KDDDKAWEYEERDRRS`, the enrichment score was 1.39.
With `SDSTVTKLDFDLEP` the enrichment score was 1.21.
With `ESSTVSEEDYFSSHRD` the enrichment score was 1.8.
The enrichment score of `RDLFDCDFGDLTPLDF` is reported as 2.37.
`EPKTLFLGAGDFQF` gave an enrichment score of 2.37.
With `GQLVIPLDELTLDTSF` the enrichment score was 3.09.
`RVSGLLSWTLSRVLWL` gave an enrichment score of -1.71.

Block 2
Target: Histone acetyltransferase KAT6A, winged helix 1, GST fusion (KAT6A, Homo sapiens, UniProt Q92794, residues 1-85)
Technique: protein binding microarray
Molecule type: double-stranded DNA, one strand shown
Sample: in vitro
Concentration: not given
Setting: 8-mer, flanks averaged, mean of 2 arrays, mostly near background
Relative to: not given
Reading: higher = stronger binding
Target sequence (chain): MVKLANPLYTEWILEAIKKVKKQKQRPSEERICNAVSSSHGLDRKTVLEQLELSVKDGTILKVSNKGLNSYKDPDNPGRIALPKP
`CGAGACCA` gave an E-score of -0.178.
`AAGGGGAA` has an E-score of -0.181.
The E-score of `GGGTGAAA` is reported as -0.15.
`AGTGCCAT` has an E-score of -0.191.
For `AAAACGCG`, the E-score was 0.254.
`GAACGCCC` has an E-score of 0.0392.
The E-score of `AAGAATGT` is reported as -0.171.
`CCAAGTAC` has an E-score of 0.0868.
For `ATTTACTC`, the E-score was 0.0104.
With `AATATTAA` the E-score was -0.0372.
`TGAGTTAA` gave an E-score of -0.103.
`GGCACGAA` gave an E-score of -0.0989.
With `ATACCGGG` the E-score was 0.224.
`GTTCATCA` has an E-score of -0.167.
`AATAGGTG` has an E-score of -0.224.
With `GGCTGGAA` the E-score was -0.118.
The E-score of `GCACGCAC` is reported as 0.194.
`AGTTCCTA` has an E-score of -0.125.
The E-score of `GTCGTTCA` is reported as -0.072.
`CTCAAATC` gave an E-score of -0.108.

Block 3
Target: Ras GTPase-activating protein-binding protein 1, full length (G3BP1, Homo sapiens, UniProt Q13283)
Chain of UniProt Q13283 (whole entry, looked up): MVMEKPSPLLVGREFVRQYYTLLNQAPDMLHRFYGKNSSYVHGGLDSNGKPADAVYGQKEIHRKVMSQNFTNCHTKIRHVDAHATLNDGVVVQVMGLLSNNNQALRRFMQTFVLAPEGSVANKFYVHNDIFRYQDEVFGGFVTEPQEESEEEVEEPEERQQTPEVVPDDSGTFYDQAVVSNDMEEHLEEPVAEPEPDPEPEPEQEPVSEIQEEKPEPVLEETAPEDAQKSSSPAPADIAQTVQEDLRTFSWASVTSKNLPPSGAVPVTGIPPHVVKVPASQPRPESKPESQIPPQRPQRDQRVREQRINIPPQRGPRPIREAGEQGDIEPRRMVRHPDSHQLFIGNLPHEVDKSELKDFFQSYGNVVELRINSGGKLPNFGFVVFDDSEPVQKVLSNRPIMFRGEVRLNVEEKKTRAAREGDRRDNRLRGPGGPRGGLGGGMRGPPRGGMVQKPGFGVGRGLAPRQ
Technique: RNA Bind-n-Seq
Molecule type: RNA
Sample: in vitro
Concentration: 200 nM
Setting: whole 134-nt RNA, ends assumed
With: 150 mM LiCl
Relative to: input library
Reading: higher = stronger binding
Each molecule: 7-deaza-guanosine replaces G
With `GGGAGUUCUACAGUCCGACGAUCCCUGUGCUACACAUCGUAUGUACCGAAUCGGUUUUUUUGGUUUUUUUGGGGUUUUUUUGGAAAGUAUUAUGUUACGCCGUUCGGAUCUGCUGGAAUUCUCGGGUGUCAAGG` the log2 enrichment was 0.684.
For `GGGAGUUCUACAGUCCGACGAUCAGUCCUGUGCUACACAUCGUAUGUACCGAAUCGGGGUGGGGAAAAAGGGGAAAGGGGAAAGUAUUAUGUUACGCCGUUCGGAUCUGCACUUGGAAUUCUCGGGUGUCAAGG`, the log2 enrichment was 0.281.
The log2 enrichment of `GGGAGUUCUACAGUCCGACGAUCGUGCUACACAUCGUAUGUACCGAAUCGGGGUUUUUUUGGGGUUUUUUUGGGGUUUUUUUGGGGAAAGUAUUAUGUUACGCCGUUCGGAUCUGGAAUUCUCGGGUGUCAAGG` is reported as 2.07.
`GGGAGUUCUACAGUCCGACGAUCUCCUCAAGUCCUGUGCUACACAUCGUAUGUACCGAAUCGGUGGGGUGGGUGGAAAGUAUUAUGUUACGCCGUUCGGAUCUGCACUUCCAGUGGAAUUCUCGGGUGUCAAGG` gave a log2 enrichment of 0.474.
`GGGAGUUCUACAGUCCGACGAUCGCAGGAAGUAAAAACAAAUGUAAAUGCUUCGGAUAGUGGCAGGGGUGGGGGUUGCUAAGGAAAGGGUGGGAUGGGAGUGGGUAAAGAGUUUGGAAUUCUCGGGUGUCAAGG` gave a log2 enrichment of 0.0503.
With `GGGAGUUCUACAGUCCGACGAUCUCAAGUCCUGUGCUACACAUCGUAUGUACCGAAUCGGAAAAAGGAGGUUUUUGGAAAGUAUUAUGUUACGCCGUUCGGAUCUGCACUUCCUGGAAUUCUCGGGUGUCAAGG` the log2 enrichment was -0.261.
The log2 enrichment of `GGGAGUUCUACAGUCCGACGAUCACCAUGCAGGUAAACAUCUUUGGGAAGUGGGGCAAGGGGGGGAUAGGGAGGGGGGUAACACUUUGGGAACAGGUGGUCCCAGGUCGUUUCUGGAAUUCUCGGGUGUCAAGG` is reported as 0.00372.
For `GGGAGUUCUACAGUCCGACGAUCCACAGACAACACGCACCCACACAGACACAGAGGGAAGGGGUUGGGAUGGGGACAUGGUGCACAGCAGGGCGGGGUAGGACCCCAGCCCCUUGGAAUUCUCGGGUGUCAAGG`, the log2 enrichment was -0.813.
With `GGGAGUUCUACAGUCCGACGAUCUUCACCAGUUUCACUGUGAGCCUCAACGAGCUGGAGACAGGCAUGGAGAAGACCCUGCCACCCACGGACUGCCGCCUGCGCCCUGACAUCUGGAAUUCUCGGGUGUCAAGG` the log2 enrichment was 1.55.
For `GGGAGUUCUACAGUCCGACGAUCCACAGACAACACGCGCCCACACAGACACAGAGGGAAGGGGUUGGGAUGGGGACAGGGUGCACAGCAGGGCGGGGUAGGACCCCAGCCCCUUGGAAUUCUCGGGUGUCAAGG`, the log2 enrichment was 0.306.
`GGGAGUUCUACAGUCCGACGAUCGUCCUGUGCUACACAUCGUAUGUACCGAAUCGGUUUUUGGGUUUUUGGGUUUUUGGGGAAAGUAUUAUGUUACGCCGUUCGGAUCUGCACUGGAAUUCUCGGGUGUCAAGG` has a log2 enrichment of -0.325.

Block 4
Target: RING finger protein unkempt homolog, zinc fingers 1-6, GST-SBP tag (UNK, Homo sapiens, UniProt Q9C0B0, residues 30-357)
Chain of UniProt Q9C0B0 (30-357, looked up): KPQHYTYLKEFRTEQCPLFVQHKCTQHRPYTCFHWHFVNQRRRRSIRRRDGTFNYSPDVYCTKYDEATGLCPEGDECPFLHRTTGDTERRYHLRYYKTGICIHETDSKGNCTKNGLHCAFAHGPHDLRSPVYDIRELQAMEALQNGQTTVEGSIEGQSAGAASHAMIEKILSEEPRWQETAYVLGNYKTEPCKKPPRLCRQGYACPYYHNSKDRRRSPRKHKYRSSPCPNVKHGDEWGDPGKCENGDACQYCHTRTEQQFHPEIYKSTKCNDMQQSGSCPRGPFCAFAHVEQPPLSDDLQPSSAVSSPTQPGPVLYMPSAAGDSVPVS
Technique: RNA Bind-n-Seq
Molecule type: RNA
Sample: in vitro
Concentration: not given
Setting: RNA with constant flanks, human and mouse sites, ends assumed
Relative to: input RNA pool
Reading: higher = stronger binding
`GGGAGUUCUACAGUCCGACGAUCUAGGACAUCUAUUUCACUGUGUCGUUUCCUUCCCUCUUUUGAAAUGAAGACACAGGCUCCACACAUUCGUCCUUUCCAUAGAGCAGGUAUAGGACCAGGUGCAAUAAAAAAAAAUGGCCUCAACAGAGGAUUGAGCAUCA` has a bound/input enrichment of 0.361 ratio.
With `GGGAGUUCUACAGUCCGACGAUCCGGCCCAUGCAGCAGAUGCAACCCACUGCUCCCAGGAACAGUAAUCUCCGUGAACUCCCCAUAGCACCUUCACAUGUUUUGGAGAUGAGUGGUAACCGAUGCUCCUCUACACCUGUUGCUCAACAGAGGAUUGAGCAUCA` the bound/input enrichment was 0.393 ratio.
`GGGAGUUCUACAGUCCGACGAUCAUCUUUGGAUGGGGACGCAACAAGUUUGGUCAGCUAGGUCUUAAUGAUGAAAAUGAUAGGUAUGUUCCUAAUUUACUAAAGUCACUAAGAUCUCAGAAAAUAGUUUAUAUUUGUUGUGGACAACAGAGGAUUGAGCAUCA` has a bound/input enrichment of 0.397 ratio.
For `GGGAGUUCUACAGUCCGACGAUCGGGCCUGUGUUUGGAAACAUGGACAAAUUUGUGGGGCUGGGAGUAUUUGUAGACACCUACCCCAAUGAGGAGAAGCAGCAAGAGCGGGUAUUCCCCUACAUCUCAGCCAUGGUGAACAACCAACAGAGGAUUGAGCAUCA`, the bound/input enrichment was 0.176 ratio.
`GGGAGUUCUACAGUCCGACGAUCGGCCUCUCGCUGGUGCCCGUGAUCUUUGUUCUGUAUCGUUGGGGGGAGGUGAGAUCAGUCAAUAGGGGUGUUGCUGUUUCCCAUCCCUGCCCCCCCCCCCCAAUUGUUAAUUUUAAGCUGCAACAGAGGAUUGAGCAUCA` gave a bound/input enrichment of 0.229 ratio.
`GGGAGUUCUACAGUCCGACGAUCGGGCUGCAGACAUGUAGGAUGGAGUGAGGUGUGUUUCCUGUCACCCUCCACUCCCCAGCUUUAGUUUCAUAAAUGUAGUUUUAGAUCCCUCACUGCUUGGUUCCCAAAGCCUUAUUACUGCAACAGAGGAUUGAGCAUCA` gave a bound/input enrichment of 21.8 ratio.
For `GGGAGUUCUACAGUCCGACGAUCAGGAAGAAUCUUUUUGAAAGGCCUUUAUUCAAUACCCAUUUACAGAAGUCCUUUGUAAGUAGCAACUGGGCUGAAACACCAAGACUAGGAAAAAAAAAUGAAAGCUCUUAUUUCCCAGGACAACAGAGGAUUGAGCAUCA`, the bound/input enrichment was 4.57 ratio.
`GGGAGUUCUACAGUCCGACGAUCAGGGAAUAAUGCUGGGAGGAGCACAGAGACAUAUCCAGGGAGAGAGGGCGCUCACGCCCGAAGGCCUCCUGUGAGCUCUGGGAUGGCCUGCCAUCUAUCUGCUCCUGCUGUUCCCCAGGGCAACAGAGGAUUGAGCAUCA` gave a bound/input enrichment of 0.11 ratio.
For `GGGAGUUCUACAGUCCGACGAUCACCCUGGAAGAGGAGACCGUGAUGCUUGCAAUGACUCCAGAUGAUUUGCAGGAGAAGGAAGUAGCUUAUUGUUCUACCUACACCCACUGUGAGAUUCACCCAUCAAUGAUUCUUGGAGUCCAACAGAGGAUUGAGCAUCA`, the bound/input enrichment was 0.146 ratio.
`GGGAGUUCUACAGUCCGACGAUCUUAUUUUGGUUGGUCUCCGAGACUACCAGGAUAACAAAGCUGAUGUAAUUUUAAAAUACAAUGCAGACGAAGCUAGAAGUCUGAAGGCAUACGGCGAGCUUCCAGAGCAUGCUAAAAUCACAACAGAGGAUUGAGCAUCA` has a bound/input enrichment of 0.13 ratio.
For `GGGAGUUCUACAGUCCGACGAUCUACUUUCAAAGAGCCCCAAGGGCUUAAUGACCCCAUUUGUAACUGAGAAAUGAUUCUUGUUUUAGUAAUCAUUCUAUAAAUGAUACUGCUGGAUUGAUUGCCGUGGGUUGAUAGCUGGAGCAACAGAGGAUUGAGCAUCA`, the bound/input enrichment was 0.409 ratio.

Some of these lines once more (block 2):
`AAGGGGAA` has an E-score of -0.181.
The E-score of `GGGTGAAA` is reported as -0.15.
`AGTGCCAT` has an E-score of -0.191.
For `AAAACGCG`, the E-score was 0.254.
`GAACGCCC` has an E-score of 0.0392.
The E-score of `AAGAATGT` is reported as -0.171.
`CCAAGTAC` has an E-score of 0.0868.
For `ATTTACTC`, the E-score was 0.0104.
With `AATATTAA` the E-score was -0.0372.
`TGAGTTAA` gave an E-score of -0.103.
